Measurements pooled from the literature.
Numbered parts are unrelated; each lists some results of a single study.

Series 1
Target: Histone acetyltransferase KAT6A, winged helix 2, GST fusion (KAT6A, Homo sapiens, UniProt Q92794, residues 85-181)
Technique: protein binding microarray
Form: double-stranded DNA, one strand shown
Sample: in vitro
Tested at: not given
Notes: 8-mer, flanks averaged, mean of 2 arrays, mostly near background
Relative to: not given
Reading: higher = stronger binding
Endpoint: E-score
Construct (chain): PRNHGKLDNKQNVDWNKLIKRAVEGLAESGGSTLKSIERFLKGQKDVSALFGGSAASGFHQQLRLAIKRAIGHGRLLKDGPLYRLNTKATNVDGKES
CTAATCAG: 0.133
CTTTAACC: -0.0965
AGTTAGCA: 0.0355
ATAAGCCC: -0.158
AGTGCAGA: -0.1
CACTGCAA: 0.106

Series 2
Target: PABPC1L2, full length, GST fusion (mouse, UniProt A0ABA7IW68)
Technique: RNAcompete
Form: RNA
Sample: in vitro
Tested at: 20 nM
Notes: 7-mer, probes averaged, single round
Relative to: mean of 7-mers
Reading: higher = stronger binding
Endpoint: 7-mer Z-score
Residues (chain): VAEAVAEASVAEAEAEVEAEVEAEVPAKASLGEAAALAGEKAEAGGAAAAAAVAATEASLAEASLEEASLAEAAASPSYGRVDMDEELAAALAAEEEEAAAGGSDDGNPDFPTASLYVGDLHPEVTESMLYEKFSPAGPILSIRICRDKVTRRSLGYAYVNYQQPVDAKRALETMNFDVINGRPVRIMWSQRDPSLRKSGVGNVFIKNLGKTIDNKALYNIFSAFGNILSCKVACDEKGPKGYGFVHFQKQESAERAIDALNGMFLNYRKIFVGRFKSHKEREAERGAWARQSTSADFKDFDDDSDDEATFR
GGCUCGU: -0.251
CAAUAAU: 0.0243
UGGGCCG: -0.182
GUUCUGC: -0.284
ACCCAAU: -0.213

Series 3
Target: TATA-box-binding protein 1 (TBP1, Arabidopsis thaliana, UniProt P28147, residues 1-200, full length assumed)
Technique: protein-binding microarray
Form: double-stranded DNA, one strand shown
Sample: in vitro
Tested at: not given
Notes: k-mer, scored over probes, only values ≥0.25
Reading: higher = stronger binding
Endpoint: E-score
Construct (chain): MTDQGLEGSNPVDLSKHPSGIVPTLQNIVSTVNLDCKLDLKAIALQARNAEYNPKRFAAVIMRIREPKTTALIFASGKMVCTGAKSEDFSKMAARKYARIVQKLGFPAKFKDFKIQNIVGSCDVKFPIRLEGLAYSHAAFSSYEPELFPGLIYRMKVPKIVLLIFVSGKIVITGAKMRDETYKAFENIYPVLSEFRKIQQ
AAGTATT: 0.305
TAAACTA: 0.274
ATTTTAA: 0.396

Other studies, line by line
PhoQ, residues 284 288 289 292 302 303 SQSLSM  fold induction (PhoP, residues 12 14 15 18 19 AWHSL (Escherichia coli, UniProt P23836); Sort-seq, item: YFP reporter; E. coli; PhoQ-PhoP variant library, together with: 10 µM Mg2+; relative to: high Mg2+ state, higher = stronger signaling): 2.87

Some of these lines once more (series 1):
ATAAGCCC: -0.158
